Experimental data of several laboratories.
Each numbered part is a random draw from the data of one study; scales do not carry over between parts. Positions count from the first letter of the parent shown.
Sequence of UniProt Q16566 (whole entry, looked up): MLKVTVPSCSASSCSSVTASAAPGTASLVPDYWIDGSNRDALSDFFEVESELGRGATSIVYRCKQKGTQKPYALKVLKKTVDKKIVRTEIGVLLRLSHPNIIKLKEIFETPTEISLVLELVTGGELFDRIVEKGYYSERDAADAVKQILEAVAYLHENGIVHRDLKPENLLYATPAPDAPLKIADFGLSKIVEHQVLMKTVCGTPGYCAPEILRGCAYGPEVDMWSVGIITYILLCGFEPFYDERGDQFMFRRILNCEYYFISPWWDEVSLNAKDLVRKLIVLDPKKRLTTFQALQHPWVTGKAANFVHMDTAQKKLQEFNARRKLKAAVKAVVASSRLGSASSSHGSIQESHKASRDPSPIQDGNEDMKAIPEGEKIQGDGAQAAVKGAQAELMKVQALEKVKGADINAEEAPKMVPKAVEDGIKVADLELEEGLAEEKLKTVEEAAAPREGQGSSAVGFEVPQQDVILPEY
Sequence of UniProt P19525 (whole entry, looked up): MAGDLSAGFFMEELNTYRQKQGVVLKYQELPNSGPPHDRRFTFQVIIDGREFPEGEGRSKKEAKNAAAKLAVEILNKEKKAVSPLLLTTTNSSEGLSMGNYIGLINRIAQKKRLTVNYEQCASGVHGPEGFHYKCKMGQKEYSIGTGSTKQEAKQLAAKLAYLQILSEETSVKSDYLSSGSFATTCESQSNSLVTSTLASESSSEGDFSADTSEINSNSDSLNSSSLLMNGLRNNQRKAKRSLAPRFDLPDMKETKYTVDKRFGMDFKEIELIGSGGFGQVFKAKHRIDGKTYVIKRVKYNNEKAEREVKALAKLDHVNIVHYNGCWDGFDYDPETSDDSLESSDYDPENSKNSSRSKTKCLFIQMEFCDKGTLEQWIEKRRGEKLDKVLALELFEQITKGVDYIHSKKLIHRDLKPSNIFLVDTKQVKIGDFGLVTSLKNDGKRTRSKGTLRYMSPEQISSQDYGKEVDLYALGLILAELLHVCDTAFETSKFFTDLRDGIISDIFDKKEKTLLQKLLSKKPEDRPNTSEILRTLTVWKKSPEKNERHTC
Sequence of UniProt Q6P2M8 (whole entry, looked up): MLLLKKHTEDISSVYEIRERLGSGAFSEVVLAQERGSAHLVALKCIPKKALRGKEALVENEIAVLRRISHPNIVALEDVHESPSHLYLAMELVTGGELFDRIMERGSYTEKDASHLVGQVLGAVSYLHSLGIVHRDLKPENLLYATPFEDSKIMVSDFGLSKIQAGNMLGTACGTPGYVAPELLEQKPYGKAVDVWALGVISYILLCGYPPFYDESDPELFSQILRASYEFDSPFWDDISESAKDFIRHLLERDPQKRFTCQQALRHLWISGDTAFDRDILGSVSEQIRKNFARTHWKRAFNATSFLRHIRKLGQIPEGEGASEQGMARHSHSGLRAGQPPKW
Sequence of UniProt P07333 (whole entry, looked up): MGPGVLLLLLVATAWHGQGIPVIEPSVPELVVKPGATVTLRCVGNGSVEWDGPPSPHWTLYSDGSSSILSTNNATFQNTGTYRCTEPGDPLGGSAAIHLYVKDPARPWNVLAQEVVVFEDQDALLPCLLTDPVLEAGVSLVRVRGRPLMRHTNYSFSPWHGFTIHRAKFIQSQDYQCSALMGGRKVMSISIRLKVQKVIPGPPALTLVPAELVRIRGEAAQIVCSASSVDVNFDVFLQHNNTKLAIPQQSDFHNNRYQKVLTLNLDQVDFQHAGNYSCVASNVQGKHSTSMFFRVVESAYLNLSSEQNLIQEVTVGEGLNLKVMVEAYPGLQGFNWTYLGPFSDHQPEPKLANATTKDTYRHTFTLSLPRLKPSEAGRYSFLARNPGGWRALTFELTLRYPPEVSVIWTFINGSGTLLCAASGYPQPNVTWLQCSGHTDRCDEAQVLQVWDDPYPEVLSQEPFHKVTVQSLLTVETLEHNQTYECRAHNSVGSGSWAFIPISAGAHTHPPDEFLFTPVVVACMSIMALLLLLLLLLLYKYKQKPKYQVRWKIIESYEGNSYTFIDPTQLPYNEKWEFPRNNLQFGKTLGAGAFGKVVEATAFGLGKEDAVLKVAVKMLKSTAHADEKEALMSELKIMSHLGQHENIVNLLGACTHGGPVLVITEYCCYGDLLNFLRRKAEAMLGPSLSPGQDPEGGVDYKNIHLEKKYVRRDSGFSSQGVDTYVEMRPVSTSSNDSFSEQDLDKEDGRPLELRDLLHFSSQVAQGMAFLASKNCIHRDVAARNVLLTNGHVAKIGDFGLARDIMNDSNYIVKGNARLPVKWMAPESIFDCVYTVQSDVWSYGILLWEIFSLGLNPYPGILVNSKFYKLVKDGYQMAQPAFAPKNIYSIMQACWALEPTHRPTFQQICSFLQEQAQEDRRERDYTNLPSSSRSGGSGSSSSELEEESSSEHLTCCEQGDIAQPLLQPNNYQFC
Sequence of UniProt Q9H4B4 (whole entry, looked up): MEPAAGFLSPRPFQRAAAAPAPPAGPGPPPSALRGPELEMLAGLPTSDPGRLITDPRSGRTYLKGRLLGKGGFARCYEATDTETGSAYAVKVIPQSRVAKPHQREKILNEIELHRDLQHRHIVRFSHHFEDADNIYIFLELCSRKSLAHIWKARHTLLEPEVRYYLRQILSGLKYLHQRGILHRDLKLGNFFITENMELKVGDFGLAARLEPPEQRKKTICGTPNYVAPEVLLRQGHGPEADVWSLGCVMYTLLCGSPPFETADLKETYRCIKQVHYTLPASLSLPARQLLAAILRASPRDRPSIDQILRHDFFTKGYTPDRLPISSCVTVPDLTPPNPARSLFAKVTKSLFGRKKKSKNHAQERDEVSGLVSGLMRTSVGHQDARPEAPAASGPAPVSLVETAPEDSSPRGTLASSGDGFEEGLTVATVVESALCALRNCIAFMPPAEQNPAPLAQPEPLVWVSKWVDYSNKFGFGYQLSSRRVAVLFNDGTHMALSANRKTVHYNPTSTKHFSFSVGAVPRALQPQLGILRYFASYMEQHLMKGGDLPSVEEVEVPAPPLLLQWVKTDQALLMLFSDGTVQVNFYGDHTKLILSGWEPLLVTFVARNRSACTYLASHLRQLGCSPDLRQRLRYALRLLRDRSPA
Sequence of UniProt P52564 (whole entry, looked up): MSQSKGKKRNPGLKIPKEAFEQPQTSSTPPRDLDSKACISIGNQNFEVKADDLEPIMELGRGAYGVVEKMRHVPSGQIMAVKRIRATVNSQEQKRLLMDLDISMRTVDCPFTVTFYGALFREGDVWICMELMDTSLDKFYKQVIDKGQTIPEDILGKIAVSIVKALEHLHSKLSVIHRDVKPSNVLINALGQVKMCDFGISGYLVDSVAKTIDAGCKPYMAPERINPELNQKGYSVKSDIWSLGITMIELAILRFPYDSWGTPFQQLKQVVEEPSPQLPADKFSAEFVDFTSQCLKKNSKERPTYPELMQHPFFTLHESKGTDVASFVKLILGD
Sequence of UniProt Q9UPZ9 (whole entry, looked up): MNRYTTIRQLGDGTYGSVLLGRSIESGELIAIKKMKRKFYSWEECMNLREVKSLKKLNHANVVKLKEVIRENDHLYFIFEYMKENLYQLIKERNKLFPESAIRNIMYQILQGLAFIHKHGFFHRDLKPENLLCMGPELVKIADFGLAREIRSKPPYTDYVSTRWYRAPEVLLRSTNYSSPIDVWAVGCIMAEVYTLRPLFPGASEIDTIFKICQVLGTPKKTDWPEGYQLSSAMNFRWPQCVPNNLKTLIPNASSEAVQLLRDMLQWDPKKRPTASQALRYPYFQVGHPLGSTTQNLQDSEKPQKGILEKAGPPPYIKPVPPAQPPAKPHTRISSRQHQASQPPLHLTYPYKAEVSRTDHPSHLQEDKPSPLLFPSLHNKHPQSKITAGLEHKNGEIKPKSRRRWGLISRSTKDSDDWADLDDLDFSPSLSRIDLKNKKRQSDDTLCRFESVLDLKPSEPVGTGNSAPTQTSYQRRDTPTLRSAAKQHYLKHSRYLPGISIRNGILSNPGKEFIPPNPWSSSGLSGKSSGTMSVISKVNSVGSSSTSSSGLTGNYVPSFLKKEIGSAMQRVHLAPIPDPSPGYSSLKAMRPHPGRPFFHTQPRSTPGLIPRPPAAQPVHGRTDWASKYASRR
Sequence of UniProt P51956 (whole entry, looked up): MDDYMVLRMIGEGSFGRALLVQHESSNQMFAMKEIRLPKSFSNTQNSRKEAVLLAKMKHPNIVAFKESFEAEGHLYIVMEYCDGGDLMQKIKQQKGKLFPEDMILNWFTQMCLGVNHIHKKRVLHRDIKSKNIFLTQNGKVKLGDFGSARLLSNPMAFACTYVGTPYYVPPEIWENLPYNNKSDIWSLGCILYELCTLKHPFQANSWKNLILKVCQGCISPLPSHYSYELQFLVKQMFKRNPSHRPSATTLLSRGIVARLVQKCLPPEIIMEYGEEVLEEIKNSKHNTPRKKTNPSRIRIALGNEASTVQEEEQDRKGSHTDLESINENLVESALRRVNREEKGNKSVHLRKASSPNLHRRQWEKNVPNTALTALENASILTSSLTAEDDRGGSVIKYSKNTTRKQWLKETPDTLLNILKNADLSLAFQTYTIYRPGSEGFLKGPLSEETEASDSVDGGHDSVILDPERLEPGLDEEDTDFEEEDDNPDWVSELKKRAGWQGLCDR

Sample 1
Compound: O=C(NC[C@@H]1[C@H]2CN(C(=O)OCc3cc(C(F)(F)F)cc(C(F)(F)F)c3)C[C@@H]12)c1ccc2[nH]nnc2c1
Read-out: cell-free assay
Technique: competition with immobilised ligand
Tested at: 1 µM
| target | remaining binding [%] |
| --- | --- |
| Macrophage colony-stimulating factor 1 receptor, autoinhibited (CSF1R, Homo sapiens, UniProt P07333) | 95 |
| CILK1 (Homo sapiens, UniProt Q9UPZ9) | 100 |
| CAMK4 (Homo sapiens, UniProt Q16566) | 100 |
| CDK14 (Homo sapiens, UniProt O94921) | 96 |
| MAP2K6 (Homo sapiens, UniProt P52564) | 72 |
| IKBKE (Homo sapiens, UniProt Q14164) | 100 |
| Ribosomal protein S6 kinase alpha-3, C-terminal kinase domain (RPS6KA3, Homo sapiens, UniProt P51812) | 89 |
| DSTYK (Homo sapiens, UniProt Q6XUX3) | 82 |
| IRAK3 (Homo sapiens, UniProt Q9Y616) | 84 |
| EIF2AK2 (Homo sapiens, UniProt P19525) | 45 |
| BLK (Homo sapiens, UniProt P51451) | 100 |

Sample 2
Target: NFE2, bZIP domain (human)
Technique: DHFR protein complementation
Medium: yeast
Setting: single substitutions, most at no-binding floor
Relative to: wild-type JUN-FOS pair
Direction: higher = stronger binding
Starting sequence: JUN, bZIP domain (human); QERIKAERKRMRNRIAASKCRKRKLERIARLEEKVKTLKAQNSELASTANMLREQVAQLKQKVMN; partner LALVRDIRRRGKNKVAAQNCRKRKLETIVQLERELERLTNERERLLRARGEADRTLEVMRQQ
| Variant | binding fitness |
| --- | --- |
| L59H | -1.52 natural log |
| L52K | -1.53 natural log |
| R53D | -1.44 natural log |
| I28L | -1.58 natural log |
| R53K | -1.55 natural log |
| L59G | -1.5 natural log |
| R53V | -1.36 natural log |
| A40Y | -1.2 natural log |

Sample 3
Target: Ras GTPase-activating protein-binding protein 1, full length (G3BP1, Homo sapiens, UniProt Q13283)
Sequence of UniProt Q13283 (whole entry, looked up): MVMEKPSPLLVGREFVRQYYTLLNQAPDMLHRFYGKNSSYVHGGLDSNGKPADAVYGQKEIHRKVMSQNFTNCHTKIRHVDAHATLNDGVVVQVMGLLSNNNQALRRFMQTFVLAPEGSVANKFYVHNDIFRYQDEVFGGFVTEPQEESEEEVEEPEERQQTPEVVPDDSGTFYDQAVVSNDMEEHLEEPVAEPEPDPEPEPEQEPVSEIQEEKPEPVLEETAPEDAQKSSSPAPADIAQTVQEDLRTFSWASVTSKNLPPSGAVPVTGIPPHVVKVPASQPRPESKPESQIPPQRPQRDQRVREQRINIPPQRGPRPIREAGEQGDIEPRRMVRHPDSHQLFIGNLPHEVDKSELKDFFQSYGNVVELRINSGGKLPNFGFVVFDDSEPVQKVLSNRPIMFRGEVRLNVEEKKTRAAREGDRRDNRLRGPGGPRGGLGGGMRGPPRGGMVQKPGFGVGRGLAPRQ
Technique: RNA Bind-n-Seq
Form: RNA
Medium: in vitro
Tested at: 200 nM
Setting: whole 134-nt RNA, ends assumed
Added: 150 mM KCl
Relative to: input library
Direction: higher = stronger binding
| Oligonucleotide | log2 enrichment |
| --- | --- |
| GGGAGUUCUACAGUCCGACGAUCCACAGACAACACGCACCCACACAGACACAGAGGGAAGGGGUGGGGAUGGGGACAGGGUGCACAGCAGGGCGGGGUAGGACCCCAGCCCCUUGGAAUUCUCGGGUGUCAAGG | 1.75 |
| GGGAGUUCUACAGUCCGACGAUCUAACUUUAGAGGAGGAUCUGAUGGAUAUGGCAGUAGACGUGGAUUUGGGGAUGGCUAUAAUGGGUAUGGAGGAGGACCUGGAGGUGGCAAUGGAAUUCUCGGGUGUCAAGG | 0.54 |
| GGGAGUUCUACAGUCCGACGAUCACCAUGCAGGUGGGCAUCUUUGGGAAGUGGGGCAAGGGGGGGAUAGGGAGGGGGGUAACACUUUGGGGACAGGUGGUCCCAGGUCGUUUCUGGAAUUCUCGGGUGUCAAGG | 1.26 |
| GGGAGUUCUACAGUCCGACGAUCGCAGGAAGUAAAAACAAAUGGAAAUGCUUCGGAUAGUGGCAGGGGUGGGGGUUGCUAAUGAAAGGGUGGGAUGGGAGUGGGUAAAGAGUUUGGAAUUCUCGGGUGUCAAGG | 0.747 |
| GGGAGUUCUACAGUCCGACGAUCCUGUGCUACACAUCGUAUGUACCGAAUCGGGGAAAGGGGUUUUUUUGGGGAAAAAAAGGGGAAAGUAUUAUGUUACGCCGUUCGGAUCUGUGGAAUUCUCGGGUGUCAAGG | -0.271 |
| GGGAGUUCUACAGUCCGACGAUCCACAGACAACAGGCACCCACACAGACACAGAGGGAAGGGGUUGGGAUGGGGACAGGGUGCACAGCAGGGCGGGGUAGGACCCCAGCCCCUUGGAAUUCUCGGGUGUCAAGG | 1.8 |
| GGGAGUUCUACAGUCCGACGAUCGUCCUGUGCUACACAUCGUAUGUACCGAAUCGGGGCCCCCGGCCCCCGGGGCCCCCGGGAAAGUAUUAUGUUACGCCGUUCGGAUCUGCAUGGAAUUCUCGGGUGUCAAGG | -0.908 |
| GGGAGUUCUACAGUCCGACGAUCCACAGACAACACGCACCCACACAGACACAGAGGGAAGGGAAAGGGAUGGGGACAGGGUGCACAGCAGGGCGGGGUAGGACCCCAGCCCCUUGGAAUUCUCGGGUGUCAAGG | 1.75 |

Sample 4
Compound: CN(C)C[C@H]1CCn2c(c(C3=C(c4cn(C)c5ccccc45)C(=O)NC3=O)c3ccccc32)C1
Read-out: enzyme activity
Mode: inhibitor
Tested at: 0.5 µM
Relative to: control
| target | remaining activity [%] |
| --- | --- |
| NEK3 (Homo sapiens, UniProt P51956) | 99.4 |
| MET (Homo sapiens, UniProt P08581) | 96.2 |
| PNCK (Homo sapiens, UniProt Q6P2M8) | 95.2 |
| MARK4 (Homo sapiens, UniProt Q96L34) | 93.9 |
| MARK2 (Homo sapiens, UniProt Q7KZI7) | 94.9 |
| PLK3 (Homo sapiens, UniProt Q9H4B4) | 100 |
| Cyclin-dependent kinase 9, with cyclin K (CDK9, Homo sapiens, UniProt P50750) | 43.5 |
| PAK3 (Homo sapiens, UniProt O75914) | 102 |
| CAMK4 (Homo sapiens, UniProt Q16566) | 95.5 |
